Measurements pooled from the literature.
Protocols differ between the studies behind these lines. ± marks the error that the study gave.
CYP2C8: Cytochrome P450 2C8 (CYP2C8, Homo sapiens, UniProt P10632)
Sequence of UniProt P10632 (whole entry, looked up): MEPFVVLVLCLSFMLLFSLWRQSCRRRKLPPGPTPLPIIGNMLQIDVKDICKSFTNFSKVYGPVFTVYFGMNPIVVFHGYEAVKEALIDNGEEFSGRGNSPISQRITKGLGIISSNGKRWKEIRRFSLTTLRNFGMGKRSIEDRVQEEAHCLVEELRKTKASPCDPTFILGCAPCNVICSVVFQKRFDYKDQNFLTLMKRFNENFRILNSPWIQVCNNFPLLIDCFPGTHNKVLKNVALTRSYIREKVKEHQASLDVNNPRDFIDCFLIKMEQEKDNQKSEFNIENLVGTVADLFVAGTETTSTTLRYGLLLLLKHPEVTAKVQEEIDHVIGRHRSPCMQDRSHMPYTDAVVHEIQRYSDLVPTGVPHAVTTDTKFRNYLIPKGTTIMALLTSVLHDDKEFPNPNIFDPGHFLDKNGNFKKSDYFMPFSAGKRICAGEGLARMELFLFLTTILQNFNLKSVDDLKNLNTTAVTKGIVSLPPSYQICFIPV
Sequence of UniProt P08183 (whole entry, looked up): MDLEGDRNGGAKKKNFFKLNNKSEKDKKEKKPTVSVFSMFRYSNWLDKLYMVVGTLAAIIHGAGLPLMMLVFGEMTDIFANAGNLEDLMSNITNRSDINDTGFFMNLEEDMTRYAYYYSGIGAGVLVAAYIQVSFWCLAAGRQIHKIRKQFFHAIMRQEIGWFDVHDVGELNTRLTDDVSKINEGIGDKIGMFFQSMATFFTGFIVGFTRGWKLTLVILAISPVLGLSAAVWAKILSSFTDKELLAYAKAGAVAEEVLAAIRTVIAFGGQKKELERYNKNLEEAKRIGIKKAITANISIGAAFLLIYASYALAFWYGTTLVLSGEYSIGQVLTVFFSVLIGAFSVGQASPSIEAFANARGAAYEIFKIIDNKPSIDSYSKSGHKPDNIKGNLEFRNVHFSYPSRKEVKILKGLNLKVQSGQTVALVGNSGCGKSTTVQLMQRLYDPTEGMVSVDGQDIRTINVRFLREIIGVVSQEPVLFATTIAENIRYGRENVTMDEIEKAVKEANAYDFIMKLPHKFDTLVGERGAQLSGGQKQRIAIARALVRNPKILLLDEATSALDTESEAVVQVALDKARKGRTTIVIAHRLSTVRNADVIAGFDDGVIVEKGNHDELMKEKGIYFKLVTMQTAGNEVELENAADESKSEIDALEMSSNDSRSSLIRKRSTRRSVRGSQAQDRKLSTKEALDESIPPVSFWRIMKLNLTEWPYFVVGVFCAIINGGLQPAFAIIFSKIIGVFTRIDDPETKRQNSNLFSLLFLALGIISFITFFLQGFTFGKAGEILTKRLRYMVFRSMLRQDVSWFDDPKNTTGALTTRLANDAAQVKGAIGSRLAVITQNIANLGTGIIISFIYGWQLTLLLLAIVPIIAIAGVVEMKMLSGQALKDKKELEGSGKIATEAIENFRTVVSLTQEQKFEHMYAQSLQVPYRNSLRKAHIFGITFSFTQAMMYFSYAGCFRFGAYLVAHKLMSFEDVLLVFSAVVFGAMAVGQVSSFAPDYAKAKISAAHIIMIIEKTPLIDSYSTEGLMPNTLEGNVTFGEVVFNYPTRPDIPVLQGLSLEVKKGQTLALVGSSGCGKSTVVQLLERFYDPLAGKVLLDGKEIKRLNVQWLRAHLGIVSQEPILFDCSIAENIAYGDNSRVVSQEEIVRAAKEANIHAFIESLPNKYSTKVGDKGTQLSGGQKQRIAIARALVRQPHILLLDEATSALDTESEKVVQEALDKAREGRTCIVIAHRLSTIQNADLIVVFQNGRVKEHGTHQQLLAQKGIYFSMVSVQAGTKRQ

`CCN1CCN(Cc2ccc(Nc3ncc(F)c(-c4cc(F)c5nc6n(c5c4)[C@H](C)CCC6)n3)nc2)CC1` has a Cmax of 355 ng/mL (human, plasma; 400 mg multiple dosing, mean).
Under “AUC(0-t) geometric mean”, `CC[C@H]1[C@@H](O)[C@@H]2[C@H](CC[C@]3(C)[C@@H]([C@H](C)CCNC(=O)NS(=O)(=O)c4ccc(C(C)(C)C)cc4)CC[C@@H]23)[C@@]2(C)CC[C@@H](O)C[C@@H]12` is recorded as 366 ng·h/mL (ABCB1 (Homo sapiens, UniProt P08183); substrate; human, plasma; dose not given, together with: quinidine).
For `Cn1c(C(F)(F)F)cc(=O)n(-c2cc(Oc3cccnc3OCC(=O)O)c(Cl)cc2F)c1=O`, the Cmax was 2160 ng/mL (beagle dog, female, plasma; oral capsule, 100 mg/kg/day epyrifenacil, day 1, 90-day study).
With `CCOc1cc(CC(=O)N[C@@H](CC(C)C)c2ccccc2N2CCCCC2)ccc1C(=O)O` the median Tmax was 1 h (CYP2C8; substrate; human, plasma; 0.5 mg, day 1).
`COCCOc1cnc2ccn([C@H](C)c3nnc4c(F)cc(-c5cnn(C)c5)cn34)c(=O)c2c1` gave a Cmax of 2540 ng/mL (patients, plasma; oral, 250 mg twice daily, day 1, 500 per day).
For `CCc1nc(C(N)=O)c(Nc2ccc(N3CCC(N4CCN(C)CC4)CC3)c(OC)c2)nc1NC1CCOCC1`, the Cmax was 680 ng/mL (Japanese patients, plasma; oral, 120 mg, cycle 1 day 28, multiple doses, mean).
For `C[C@H]1CN(C(=O)CC#N)[C@]12CCN(c1ncnc3[nH]ccc13)C2`, the Cmax was 49.7 ng/mL (healthy adults, plasma; oral, 6 mg single dose).
Under “log2 fold change”, `Cn1cc(-c2ccc(-c3cncc(Cl)c3N3CCC4(CCNC4=O)CC3)cc2)cn1` is recorded as -2.64 (COLO 205; gene expression, microarray, measured: NRF1 mRNA; concentration not given, 2 h; relative to: untreated cells).
With `Cl.[2H]C([2H])([2H])CC(=O)c1cnc(NC(=O)C2CC2)cc1Nc1cccc(-c2ncn(C([2H])([2H])[2H])n2)c1OC` the Cmax was 93 ng/mL (geometric mean; human; oral, 10 mg single dose, fasted, liquid).
For `N#C[C@@]1(c2ccc3c(N)ncnn23)O[C@H](CO)[C@@H](O)[C@H]1O`, the Cmax was 17.4 µM (dog, plasma; oral, 5 mg/kg, solution, recalculated NCATS data).
`COc1ccc(C[C@@H](C)[C@@H](C)Cc2ccc(OC)c(OC)c2)cc1OC` has a Cmax of 2190 ± 538 ng/mL (beagle dog female, plasma; oral, 1000 mg/kg/day, day 1).
With `Cc1cc(Nc2ncnc3ccc(NC4=NC(C)(C)CO4)cc23)ccc1Oc1ccn2ncnc2c1` the AUC(0-last) was 2660 ng·h/mL (CYP2C8; human, plasma; oral, 300 mg single dose, day 1, arithmetic mean).
`CNC(=O)c1ccc(-c2cnc3ncc(Cc4ccc5ncccc5c4)n3n2)cc1F`: “dry mouth incidence (all grades)” 11% (CTCAE v4.0, any causality; human cancer patients; oral, 600 mg twice daily, expansion cohort at RP2D).
With `COc1ncc(-c2nc3c(n2C(C)C)[C@H](c2ccc(Cl)cc2)N(c2cc(Cl)cn(C)c2=O)C3=O)c(OC)n1` the Cmax was 126 ng/mL (LC-MS/MS; human, plasma; oral, 25 mg, cycle 2 day 1, high-dose arm).
`Cc1nc(-c2cnc(NC(C)C)n(C)c2=O)ccc1Oc1ccnc(-c2cnn(C)c2)c1` gave a Cmax of 1300 ng/mL (Beagle dog, male, plasma; oral, 3 mg/kg, crossover study, mean).
The Cmax of `COc1cc2c3c(n(CCCN4CCOCC4)c(=O)c2cc1OC)-c1cc2c(cc1C3=O)OCO2` is reported as 275 ± 43 ng/mL (beagle dog, female, plasma; intravenous infusion, 50 mg/m^2, 1 h infusion, vehicle 1).

Repeated from above:
Under “AUC(0-t) geometric mean”, `CC[C@H]1[C@@H](O)[C@@H]2[C@H](CC[C@]3(C)[C@@H]([C@H](C)CCNC(=O)NS(=O)(=O)c4ccc(C(C)(C)C)cc4)CC[C@@H]23)[C@@]2(C)CC[C@@H](O)C[C@@H]12` is recorded as 366 ng·h/mL (ABCB1 (Homo sapiens, UniProt P08183); substrate; human, plasma; dose not given, together with: quinidine).
For `Cn1c(C(F)(F)F)cc(=O)n(-c2cc(Oc3cccnc3OCC(=O)O)c(Cl)cc2F)c1=O`, the Cmax was 2160 ng/mL (beagle dog, female, plasma; oral capsule, 100 mg/kg/day epyrifenacil, day 1, 90-day study).
